Measurements gathered from unrelated publications.
Lines come from different studies, so protocols differ. Values joined by “and” are separate records of one study, mostly repeats; a detail may differ. Numbers after ± are the reported error.
Chain of UniProt A5GZW8 (whole entry, looked up): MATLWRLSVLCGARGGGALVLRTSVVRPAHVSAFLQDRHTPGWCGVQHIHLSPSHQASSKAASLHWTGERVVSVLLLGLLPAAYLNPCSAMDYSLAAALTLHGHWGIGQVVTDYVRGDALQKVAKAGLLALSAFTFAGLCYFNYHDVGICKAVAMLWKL
Chain of UniProt D0VWV4 (whole entry, looked up): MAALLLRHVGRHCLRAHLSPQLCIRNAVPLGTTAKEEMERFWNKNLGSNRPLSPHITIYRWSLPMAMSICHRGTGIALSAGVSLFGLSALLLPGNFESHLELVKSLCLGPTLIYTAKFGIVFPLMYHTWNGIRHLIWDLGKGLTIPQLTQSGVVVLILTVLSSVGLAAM
Chain of UniProt Q16539 (whole entry, looked up): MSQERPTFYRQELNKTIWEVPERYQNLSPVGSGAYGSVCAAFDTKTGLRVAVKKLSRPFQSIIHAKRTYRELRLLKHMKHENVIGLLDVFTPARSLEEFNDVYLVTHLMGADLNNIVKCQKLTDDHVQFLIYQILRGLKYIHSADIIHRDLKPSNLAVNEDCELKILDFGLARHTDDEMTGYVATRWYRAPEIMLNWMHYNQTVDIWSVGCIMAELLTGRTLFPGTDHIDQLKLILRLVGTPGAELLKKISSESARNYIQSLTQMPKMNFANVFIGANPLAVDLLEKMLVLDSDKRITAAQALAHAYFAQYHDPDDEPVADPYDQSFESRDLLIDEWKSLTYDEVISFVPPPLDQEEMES
Chain of UniProt P27361 (whole entry, looked up): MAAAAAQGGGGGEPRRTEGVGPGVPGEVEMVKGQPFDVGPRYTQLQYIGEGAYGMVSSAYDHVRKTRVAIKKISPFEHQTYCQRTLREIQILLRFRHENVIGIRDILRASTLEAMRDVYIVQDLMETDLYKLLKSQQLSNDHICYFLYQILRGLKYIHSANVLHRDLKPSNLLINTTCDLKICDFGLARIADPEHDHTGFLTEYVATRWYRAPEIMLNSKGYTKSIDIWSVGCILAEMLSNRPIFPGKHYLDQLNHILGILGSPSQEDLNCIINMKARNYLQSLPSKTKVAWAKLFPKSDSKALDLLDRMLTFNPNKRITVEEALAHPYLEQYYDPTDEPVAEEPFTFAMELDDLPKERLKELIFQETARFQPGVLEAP
Chain of UniProt Q007T0 (whole entry, looked up): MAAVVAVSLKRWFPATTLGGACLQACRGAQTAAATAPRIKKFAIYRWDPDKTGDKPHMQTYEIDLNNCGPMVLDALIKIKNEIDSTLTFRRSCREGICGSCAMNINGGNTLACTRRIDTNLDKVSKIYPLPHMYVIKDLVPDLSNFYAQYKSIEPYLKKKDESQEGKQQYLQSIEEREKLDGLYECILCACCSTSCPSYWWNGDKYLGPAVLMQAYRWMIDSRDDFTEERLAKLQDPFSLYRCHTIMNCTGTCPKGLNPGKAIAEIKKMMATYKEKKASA
Chain of UniProt P29371 (whole entry, looked up): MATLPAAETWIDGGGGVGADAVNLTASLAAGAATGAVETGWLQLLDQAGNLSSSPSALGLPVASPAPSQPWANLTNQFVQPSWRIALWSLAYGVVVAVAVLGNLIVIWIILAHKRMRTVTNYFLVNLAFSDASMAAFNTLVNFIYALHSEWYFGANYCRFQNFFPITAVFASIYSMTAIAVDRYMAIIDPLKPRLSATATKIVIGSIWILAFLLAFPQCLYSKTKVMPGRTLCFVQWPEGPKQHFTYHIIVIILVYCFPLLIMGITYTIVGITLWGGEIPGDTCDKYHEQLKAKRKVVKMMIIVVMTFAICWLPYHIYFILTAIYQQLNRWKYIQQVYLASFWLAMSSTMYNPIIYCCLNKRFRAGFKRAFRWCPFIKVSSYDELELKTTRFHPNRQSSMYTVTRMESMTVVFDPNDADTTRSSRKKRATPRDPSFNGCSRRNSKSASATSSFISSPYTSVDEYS
Chain of UniProt Q2FDS6 (whole entry, looked up): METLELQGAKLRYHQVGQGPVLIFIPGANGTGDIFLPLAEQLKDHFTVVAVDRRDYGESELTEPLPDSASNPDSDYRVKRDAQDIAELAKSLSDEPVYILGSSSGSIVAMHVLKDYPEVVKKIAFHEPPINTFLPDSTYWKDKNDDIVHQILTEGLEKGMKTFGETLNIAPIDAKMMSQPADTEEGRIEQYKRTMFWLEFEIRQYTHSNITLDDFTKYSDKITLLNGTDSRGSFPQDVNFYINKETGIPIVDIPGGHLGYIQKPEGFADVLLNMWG
Chain of UniProt Q06151 (whole entry, unmodified, looked up): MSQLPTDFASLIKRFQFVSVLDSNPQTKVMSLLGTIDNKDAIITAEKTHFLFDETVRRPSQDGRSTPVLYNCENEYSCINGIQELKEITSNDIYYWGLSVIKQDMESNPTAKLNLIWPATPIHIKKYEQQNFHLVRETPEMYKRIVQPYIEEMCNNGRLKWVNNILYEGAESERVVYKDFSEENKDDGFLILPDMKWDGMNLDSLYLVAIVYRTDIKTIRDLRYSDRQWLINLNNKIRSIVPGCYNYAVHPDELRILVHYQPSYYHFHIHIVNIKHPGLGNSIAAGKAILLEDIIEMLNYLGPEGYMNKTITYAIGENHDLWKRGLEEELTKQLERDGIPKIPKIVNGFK
Chain of UniProt Q62351 (whole entry, looked up): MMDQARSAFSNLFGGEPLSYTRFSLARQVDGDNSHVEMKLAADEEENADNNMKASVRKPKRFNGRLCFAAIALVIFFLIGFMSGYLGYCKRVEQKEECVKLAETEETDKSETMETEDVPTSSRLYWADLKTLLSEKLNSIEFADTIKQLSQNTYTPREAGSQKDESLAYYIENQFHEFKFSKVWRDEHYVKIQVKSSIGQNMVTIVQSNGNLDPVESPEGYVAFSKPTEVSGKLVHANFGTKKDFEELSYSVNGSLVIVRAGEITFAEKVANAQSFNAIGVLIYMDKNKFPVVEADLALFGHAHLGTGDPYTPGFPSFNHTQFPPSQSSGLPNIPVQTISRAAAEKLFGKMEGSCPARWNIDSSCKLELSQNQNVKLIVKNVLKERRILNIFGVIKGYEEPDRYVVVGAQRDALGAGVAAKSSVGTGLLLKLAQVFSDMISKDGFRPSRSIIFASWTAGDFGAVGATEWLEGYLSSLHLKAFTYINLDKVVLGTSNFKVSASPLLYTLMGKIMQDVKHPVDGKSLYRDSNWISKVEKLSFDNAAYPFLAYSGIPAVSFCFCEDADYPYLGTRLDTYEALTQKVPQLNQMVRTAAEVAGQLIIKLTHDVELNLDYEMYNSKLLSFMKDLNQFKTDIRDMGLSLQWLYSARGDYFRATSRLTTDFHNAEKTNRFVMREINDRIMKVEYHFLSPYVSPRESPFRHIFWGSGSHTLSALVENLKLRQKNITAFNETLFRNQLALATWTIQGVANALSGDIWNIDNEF
Chain of UniProt O00222 (whole entry, looked up): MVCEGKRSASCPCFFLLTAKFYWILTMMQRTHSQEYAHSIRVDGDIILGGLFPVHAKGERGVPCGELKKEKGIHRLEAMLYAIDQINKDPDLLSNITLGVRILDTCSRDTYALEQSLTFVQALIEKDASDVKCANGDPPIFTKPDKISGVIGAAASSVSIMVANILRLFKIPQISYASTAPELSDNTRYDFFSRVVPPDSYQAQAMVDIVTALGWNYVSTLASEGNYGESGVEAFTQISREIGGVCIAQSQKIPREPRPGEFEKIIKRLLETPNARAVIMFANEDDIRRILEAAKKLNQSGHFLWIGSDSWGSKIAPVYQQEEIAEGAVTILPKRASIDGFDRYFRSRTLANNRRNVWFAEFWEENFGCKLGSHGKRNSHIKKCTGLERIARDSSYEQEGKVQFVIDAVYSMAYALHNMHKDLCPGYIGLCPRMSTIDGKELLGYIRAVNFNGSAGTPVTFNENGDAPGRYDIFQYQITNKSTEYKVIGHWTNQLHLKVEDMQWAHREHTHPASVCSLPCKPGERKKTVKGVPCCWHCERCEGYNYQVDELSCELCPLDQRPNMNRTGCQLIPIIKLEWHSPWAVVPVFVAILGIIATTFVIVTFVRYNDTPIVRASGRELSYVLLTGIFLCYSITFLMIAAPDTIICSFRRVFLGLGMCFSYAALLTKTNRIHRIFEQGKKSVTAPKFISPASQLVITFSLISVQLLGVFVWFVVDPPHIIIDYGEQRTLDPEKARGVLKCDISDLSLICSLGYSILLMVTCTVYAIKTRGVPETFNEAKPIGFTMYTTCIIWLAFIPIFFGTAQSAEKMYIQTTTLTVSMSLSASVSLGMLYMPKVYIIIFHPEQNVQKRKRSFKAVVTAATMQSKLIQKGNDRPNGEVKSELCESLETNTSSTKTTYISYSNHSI
Chain of UniProt P00942 (whole entry, unmodified, looked up): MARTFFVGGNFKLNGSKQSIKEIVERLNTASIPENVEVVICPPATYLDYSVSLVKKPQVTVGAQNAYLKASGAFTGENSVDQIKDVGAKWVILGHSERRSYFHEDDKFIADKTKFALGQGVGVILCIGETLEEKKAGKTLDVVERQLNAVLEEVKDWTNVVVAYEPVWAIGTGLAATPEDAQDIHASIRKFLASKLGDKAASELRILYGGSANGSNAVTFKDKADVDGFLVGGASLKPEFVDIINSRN
Chain of UniProt P07026 (whole entry, looked up): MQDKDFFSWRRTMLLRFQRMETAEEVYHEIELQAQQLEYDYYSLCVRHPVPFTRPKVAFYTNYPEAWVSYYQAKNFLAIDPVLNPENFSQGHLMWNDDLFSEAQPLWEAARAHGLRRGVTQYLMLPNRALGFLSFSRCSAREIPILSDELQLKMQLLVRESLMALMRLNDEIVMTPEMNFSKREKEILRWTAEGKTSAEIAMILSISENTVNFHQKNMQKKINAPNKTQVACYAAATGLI
Chain of UniProt Q63HM1 (whole entry, looked up): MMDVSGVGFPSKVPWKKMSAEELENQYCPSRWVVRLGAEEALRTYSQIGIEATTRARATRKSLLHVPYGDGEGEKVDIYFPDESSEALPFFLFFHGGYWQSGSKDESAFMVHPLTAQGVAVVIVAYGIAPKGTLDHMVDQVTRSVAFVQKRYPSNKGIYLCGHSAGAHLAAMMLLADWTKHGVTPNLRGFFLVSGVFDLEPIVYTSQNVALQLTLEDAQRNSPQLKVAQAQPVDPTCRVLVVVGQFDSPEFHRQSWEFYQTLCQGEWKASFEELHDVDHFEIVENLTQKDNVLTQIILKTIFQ

| Compound | tested on | test | test system | conditions | scale | quantity | value |
| --- | --- | --- | --- | --- | --- | --- | --- |
| O=C(c1ccc(Cl)cc1)N1CCN2C(=O)N(OC(=O)N3CCOc4ccccc43)C(=O)C2C1 (centres unmarked) | Kynurenine formamidase (AFMID, Homo sapiens, UniProt Q63HM1) | MS-based ABPP | SW-620 conditioned medium | 10 µM, 1 h, 37 °C | relative to: treated over control | mean protein ratio | 1.27 |
| C[n+]1cn([C@@H]2O[C@H](COP(=O)([O-])OP(=O)(O)OP(=O)(O)OC[C@H]3O[C@@H](n4cnc5c(=O)[nH]c(N)nc54)[C@H](O)[C@@H]3O)[C@@H](O)[C@H]2O)c2nc(N)[nH]c(=O)c21 | m7GpppX diphosphatase (DCS1, Saccharomyces cerevisiae, UniProt Q06151, H268N/K126A) | binding, ITC |  |  |  | stoichiometry second site | 1.07 |
| CCCN(CCC)CCNC(=O)c1cc(-c2ccc(Br)s2)nc2ccccc12 | Vero-E6 | CellTiter-Glo ATP |  | concentration not given, 72 h, retest 8-point duplicates | relative to: DMSO 0%, hyamine -100%, more negative, more toxic | cytotoxicity efficacy | -17.7% |
| O=C(Nc1cccc(OS(=O)(=O)c2ccc(Cl)cc2)c1)c1ccc2ncccc2c1 | P2Y purinoceptor 1 (Meleagris gallopavo, UniProt P49652) | receptor activation, antagonist, calcium mobilization | 1321N1 cells expressing P2Y1 receptor | 100 µM, with: ADP 500 nM | relative to: ADP alone | activity | ~65% |
| CCOC(=O)CC(SP(=O)(OC)OC)C(=O)OCC (centres unmarked) | uncharacterized protein (Anopheles coluzzii, UniProt A0A6E8VQK1) | enzyme activity, inhibitor | Sf9 cell homogenate | 0.1147 µM, 0.1667 h, with: α-naphthyl acetate substrate | relative to: no inhibitor | remaining activity | 81.3% |
| CC=O | ADH1 (Saccharomyces cerevisiae, UniProt P00330, H49Q) | reduction, substrate |  | pH 7.3, 30 °C |  | kcat | 3000 s⁻¹ |
| C#CCCCCCCCCC(=O)Nc1ccc(-n2nc(OC)oc2=O)cc1 | Uncharacterized hydrolase SAUSA300_2518 (Staphylococcus aureus, UniProt Q2FDS6) | covalent labelling, mass spectrometry | Staphylococcus aureus USA300 | 200 µM, 4 h, room temperature |  | mass increase | 371 Da |
| CC1=C2C[C@H]3[C@@H](CC=C4C[C@@H](O)CC[C@@]43C)[C@@H]2CC[C@]12O[C@@H]1C[C@H](C)CN[C@H]1[C@H]2C | Protein smoothened (SMO, Homo sapiens, UniProt Q99835) | GTPγS binding | CHO stably expressing human SMO | concentration not given |  | decrease of basal signal | 70.5 ± 1.9% |
| CN1C(=O)CC[C@H](N2Cc3c(ccc4c3OCC43CCN(C[C@@H]4CCC5(CCN(c6ccc([C@@H]7c8ccc(O)cc8CC[C@@H]7c7ccccc7)cc6)CC5)OC4)CC3)C2=O)C1=O | Estrogen receptor (ESR1, Homo sapiens, UniProt P03372, D538G) | degrader, Western blot | MCF7 (ESR1 D538G) | 10 and 100 nM, 7 h |  | ER protein level | no effect |
| CN(CC(=O)O)C(=N)NP(=O)(O)O | Creatine kinase U-type, mitochondrial (CKMT1A, Homo sapiens, UniProt P12532, H99A) | substrate, Kinase-Glo luminescence |  | pH 7.0, reverse reaction, H61A mutant, with: second substrate in excess |  | kcat | 28 ± 2 s⁻¹ |
| C[C@H]1CN(c2n[nH]c3nc(N[C@H]4CC[C@H](NS(=O)(=O)CCC(F)(F)F)CC4)ncc23)CCO1 | Serine/threonine-protein kinase tousled-like 2 (TLK2, Homo sapiens, UniProt Q86UE8) | inhibitor, Kinobeads competition profiling |  | 0.8 µM | relative to: vehicle | relative abundance | 1.2 |
| CC[N+]1(C)CCN(c2ccccc2)CC1 | Neuronal acetylcholine receptor subunit alpha-9 (CHRNA9, Homo sapiens, UniProt Q9UGM1) | peak current, agonist, two-electrode voltage clamp | Xenopus oocytes coexpressing rapsyn | 30 µM | relative to: ACh 60 µM | response relative to ACh | 70% |
| [2H]c1c([2H])c([C@]2([2H])CCCN2C(=O)C(C)(C)Oc2ccc3cn[nH]c3c2)c([2H])c([2H])c1C([2H])([2H])[2H] | 1-phosphatidylinositol 3-phosphate 5-kinase (PIKFYVE, Homo sapiens, UniProt Q9Y2I7) | KINOMEscan |  | 1 µM | relative to: DMSO control | remaining binding | 86% |
| COc1ccccc1N1CCN(c2c(C#N)nnc3c(OC)cc(F)cc23)CC1 | Metabotropic glutamate receptor 8 (GRM8, Homo sapiens, UniProt O00222) | positive allosteric modulator |  | concentration not given, with: glutamate |  | activity | inactive |
| COC(=O)[C@@]1(O)C[C@H]2O[C@]1(C)n1c3ccccc3c3c4c(c5c6ccccc6n2c5c31)C(=O)NC4 | Mitogen-activated protein kinase 3 (MAPK3, Homo sapiens, UniProt P27361) | ADP-Glo |  | 80 nM, with: MBP substrate |  | kinase activity | 65.7% and 45.9% and 60% |
| NCc1cc(=O)[nH]o1 | GABA-A receptor; GABA-A site (alpha1/beta2 interface), with gamma-2 subunit (Homo sapiens, UniProt P14867+P47870) | agonist-activated current, whole-cell patch clamp | HEK293 stably expressing | agonist concentration-response |  | Hill coefficient | 1.2 ± 0.1 |
| NCCc1c[nH]c2ccc(O)cc12 | AANAT1 pig | substrate, DTNB colorimetric |  | with: acetyl-CoA |  | Km | 310 ± 170 µM |
| O=C(O)Cc1c[nH]cn1 | Sodium- and chloride-dependent taurine transporter (SLC6A6, Homo sapiens, UniProt P31641, Y138A) | binding, microscale thermophoresis |  | 3.91 µM, room temperature, with: 50 nM labelled protein | higher = more binding | normalised MST signal | 0.00225 |
| O=C(Nc1ccc([N+](=O)[O-])cc1Cl)c1cc(Cl)ccc1O | Fatty acid-binding protein, liver (FABP1, Homo sapiens, UniProt P07148) | affinity selection mass spectrometry |  | 100 nM, with: pooled compounds | relative to: other proteins | binding fold change | 22 |

| Compound | tested on | test | test system | conditions | scale | quantity | value |
| --- | --- | --- | --- | --- | --- | --- | --- |
| CC[C@@H](C)[C@@H](NC(=O)[C@@H](Cc1ccc(O)cc1)NC(=O)[C@H]1CCCN1C(=O)[C@@H](CCCNC(=N)N)NC(=O)[C@H](N)Cc1c[nH]cn1)C(=O)N[C@H](C)C(=O)N[C@H](Cc1c[nH]cn1)C(=O)N[C@H](CCCNC(=N)N)C(=O)N[C@H](CCCCNC(=O)c1cccc(S(=O)(=O)F)c1)C(=O)N[C@H](Cc1ccc(O)cc1)C(=O)N[C@H](CO)C(=O)N[C@H](Cc1ccccc1)C(N)=O | Transferrin receptor protein 1 (Tfrc, Mus musculus, UniProt Q62351) | flow cytometry | B16 | 2 h, unit not given | relative to: 0 h | surface TFRC expression | 0.873 |
| COc1ccc(N2C(=O)N(c3c(C)cccc3Cl)Cc3cnc(Nc4ccc(C5CCN(C)CC5)cc4OC)nc32)nc1 | Tyrosine-protein kinase JAK2 (JAK2, Homo sapiens, UniProt O60674) | kinase activity |  | 0.5 µM |  | inhibition | 5.36% |
| CN[C@@H]1C[C@H]2O[C@@](C)([C@@H]1OC)n1c3ccccc3c3c4c(c5c6ccccc6n2c5c31)C(=O)NC4 | Mitogen-activated protein kinase 14 (MAPK14, Homo sapiens, UniProt Q16539) | kinase activity, Kinase-Glo luminescence |  | concentration not given |  | normalized luminescence | -0.0319 and -0.0476 and 0.00683 |
| CCCCCCCCCC(=O)CC(=O)N[C@H]1CCOC1=O | Regulatory protein SdiA (sdiA, Escherichia coli, UniProt P07026) |  |  |  |  | Emax | 111% |
| NCCc1c[nH]c2ccc(O)cc12 | serotonin receptor-like protein (Schistosoma mansoni, UniProt A0A173FEI8) | cAMP level, agonist, GloSensor luminescence |  |  | relative to: 5-HT maximal response | Emax | 100 ± 7% |
| O=C(O)COP(=O)(O)O | TPI1 (Saccharomyces cerevisiae, UniProt P00942, Y208S) | enzyme activity, competitive inhibitor, GPDH/NADH-coupled |  | pH 5.7, 25 °C, ionic strength 0.1 NaCl, with: glyceraldehyde 3-phosphate substrate | relative to: mutant over wild type | Ki ratio | 84 |
| Nc1nc2c(ncn2[C@@H]2O[C@@H]3COP(=O)(O)O[C@H]4[C@@H](O)[C@H](n5cnc6c(=O)[nH]c(N)nc65)O[C@@H]4COP(=O)(O)O[C@H]3[C@H]2O)c(=O)[nH]1 | Cell cycle histidine kinase CckA, cytoplasmic region (Caulobacter vibrioides, UniProt Q9X688) | binding, ITC |  | 12 °C, with: ADP 5 mM |  | -TΔS | -12.5 kcal/mol |
| O=[As](O)(O)c1ccc(Cc2ccc([As](=O)(O)O)cc2)cc1 | Autotaxin (ENPP2, Homo sapiens, UniProt Q13822) |  |  | 10 µM, 30 min, with: FS-3 | relative to: enzyme alone | product formation | 98% |
| CCOC(=O)N1c2ccc(C(F)(F)F)cc2[C@@H](N(Cc2cc(C(F)(F)F)cc(C(F)(F)F)c2)C(=O)OC)C[C@H]1CC | human coronavirus OC43 | virus-induced cell killing | MRC-5 | screen |  | maximum inhibition | 20.7% |
| O=C(CF)NC1C(O)CC(OC2C(O)C(CO)OC(Oc3ccc([N+](=O)[O-])cc3)C2O)(C(=O)O)OC1C(O)C(O)CO (centres unmarked) | Sialidase-2 (Homo sapiens, UniProt Q9Y3R4) | substrate |  | 10 min, pH 5.0, 37 °C |  | Km | 1800 ± 200 µM |
| CC[C@H](CO)Nc1nc(NCc2ccccc2)c2ncn(C(C)C)c2n1 | Homeodomain-interacting protein kinase 4 (HIPK4, Homo sapiens, UniProt Q8NE63) | KINOMEscan |  | 10 µM | direction not given | binding score | 4.5 |
| COC(=O)Nc1ccc(-c2nc(N3CCOCC3)c3cnn(C4CCN(C(=O)OC)CC4)c3n2)cc1 | human coronavirus OC43 | virus-induced cell killing | MRC-5 | maximum over 10 doses |  | maximum inhibition | 0% |
| O=C(NNC(=O)c1csnn1)c1ccc(Cl)cc1 | Acetyl-CoA synthetase (Cryptococcus neoformans, UniProt J9VFT1) |  |  | 12.5 µM |  | remaining activity | 11.9% |
| C=C(CN(C(=O)c1c(C(F)F)nn(C)c1F)C1CC1)c1ccc(Cl)cc1Cl | SDHD/SDHC/SDHB (Sus scrofa, UniProt A5GZW8+D0VWV4+Q007T0) | enzyme activity, inhibitor, DCIP reduction | pig | 0.2 µM, with: DCIP 80 µM |  | reaction velocity | 0.0137 µM/s and 0.0142 µM/s and 0.0146 µM/s |
| CN1CCN(c2cc(-c3ccncc3)c(-c3ccc4ccccc4c3)nn2)CC1 | Neuromedin-K receptor (TACR3, Homo sapiens, UniProt P29371) | agonist, FLIPR |  | 12.5 µM |  | activation | 0.8% |
| O=c1c2ccccc2oc2cc(OCCCCc3ccccc3)ccc12 | Acetylcholinesterase (ache, Electrophorus electricus, UniProt O42275) | enzyme activity |  | 2.91 µM, with: substrate 1.73 mM | higher = faster reaction | reaction velocity | 0.0014 a.u. |
| COc1cc(N)c(Cl)cc1C(=O)NC1CN2CCC1CC2 (centres unmarked) | G-protein coupled receptor family C group 5 member D (GPRC5D, Homo sapiens, UniProt Q9NZD1) | β-arrestin recruitment, TANGO luminescence, measured: GPRC5D |  | concentration not given | relative to: basal luminescence | log2 fold change | 0.421 |
| CC(C)(C)[C@]1(O)CC2OC(=O)CC23C(=O)OC2OC(=O)[C@H](O)C231 (some centres unmarked) | Rdl (Drosophila melanogaster, UniProt P25123) | ion current, inhibitor, two-electrode voltage clamp |  | from τoff, with: GABA at EC50 |  | koff | 0.083 s⁻¹ |
| CSCC[C@H](N)C(=O)N[C@@H](C)C(=O)N[C@@H](C)C(=O)N[C@H](C(=O)N[C@@H](C)C(=O)NCC(=O)N[C@@H](CC(C)C)C(=O)N[C@@H](Cc1ccc(O)cc1)C(=O)NCC(=O)N[C@@H](CC(C)C)C(=O)NCC(=O)N[C@@H](CCC(=O)O)C(=O)N[C@@H](CC(=O)O)C(=O)N[C@@H](CCCNC(=N)N)C(=O)N[C@@H](CCC(N)=O)C(=O)N[C@@H](Cc1c[nH]cn1)C(=O)N[C@@H](CCCNC(=N)N)C(=O)N[C@@H](CCCCN)C(=O)N[C@@H](CCCCN)C(=O)N[C@@H](CCC(N)=O)C(N)=O)C(C)C | Sh, DEL6-46 (Drosophila melanogaster, UniProt P08510) | ion current, blocker, inside-out patch clamp |  | +50 mV |  | Hill coefficient | 0.86 |

A few entries again:
| Compound | tested on | test | test system | conditions | scale | quantity | value |
| --- | --- | --- | --- | --- | --- | --- | --- |
| C#CCCCCCCCCC(=O)Nc1ccc(-n2nc(OC)oc2=O)cc1 | Uncharacterized hydrolase SAUSA300_2518 (Staphylococcus aureus, UniProt Q2FDS6) | covalent labelling, mass spectrometry | Staphylococcus aureus USA300 | 200 µM, 4 h, room temperature |  | mass increase | 371 Da |
| [2H]c1c([2H])c([C@]2([2H])CCCN2C(=O)C(C)(C)Oc2ccc3cn[nH]c3c2)c([2H])c([2H])c1C([2H])([2H])[2H] | 1-phosphatidylinositol 3-phosphate 5-kinase (PIKFYVE, Homo sapiens, UniProt Q9Y2I7) | KINOMEscan |  | 1 µM | relative to: DMSO control | remaining binding | 86% |
| NCCc1c[nH]c2ccc(O)cc12 | serotonin receptor-like protein (Schistosoma mansoni, UniProt A0A173FEI8) | cAMP level, agonist, GloSensor luminescence |  |  | relative to: 5-HT maximal response | Emax | 100 ± 7% |
| CN1C(=O)CC[C@H](N2Cc3c(ccc4c3OCC43CCN(C[C@@H]4CCC5(CCN(c6ccc([C@@H]7c8ccc(O)cc8CC[C@@H]7c7ccccc7)cc6)CC5)OC4)CC3)C2=O)C1=O | Estrogen receptor (ESR1, Homo sapiens, UniProt P03372, D538G) | degrader, Western blot | MCF7 (ESR1 D538G) | 10 and 100 nM, 7 h |  | ER protein level | no effect |
| CC[N+]1(C)CCN(c2ccccc2)CC1 | Neuronal acetylcholine receptor subunit alpha-9 (CHRNA9, Homo sapiens, UniProt Q9UGM1) | peak current, agonist, two-electrode voltage clamp | Xenopus oocytes coexpressing rapsyn | 30 µM | relative to: ACh 60 µM | response relative to ACh | 70% |
| COc1ccc(N2C(=O)N(c3c(C)cccc3Cl)Cc3cnc(Nc4ccc(C5CCN(C)CC5)cc4OC)nc32)nc1 | Tyrosine-protein kinase JAK2 (JAK2, Homo sapiens, UniProt O60674) | kinase activity |  | 0.5 µM |  | inhibition | 5.36% |
